Results gathered from unrelated publications.
Compare with care: the assays were run in different laboratories. Numbers after ± are the reported error. Converted amounts (≈) assume the structure as drawn.

Protein sequences, listed by entry. Tags and fused reporters are not part of them.
UniProt Q96S44, whole entry: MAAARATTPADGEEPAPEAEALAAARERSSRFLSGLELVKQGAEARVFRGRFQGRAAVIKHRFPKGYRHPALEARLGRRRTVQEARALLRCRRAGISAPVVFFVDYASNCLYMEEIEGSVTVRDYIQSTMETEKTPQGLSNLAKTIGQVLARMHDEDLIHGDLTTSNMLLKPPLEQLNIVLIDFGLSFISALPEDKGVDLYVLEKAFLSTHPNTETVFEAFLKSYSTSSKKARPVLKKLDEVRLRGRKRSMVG
UniProt P42679, whole entry: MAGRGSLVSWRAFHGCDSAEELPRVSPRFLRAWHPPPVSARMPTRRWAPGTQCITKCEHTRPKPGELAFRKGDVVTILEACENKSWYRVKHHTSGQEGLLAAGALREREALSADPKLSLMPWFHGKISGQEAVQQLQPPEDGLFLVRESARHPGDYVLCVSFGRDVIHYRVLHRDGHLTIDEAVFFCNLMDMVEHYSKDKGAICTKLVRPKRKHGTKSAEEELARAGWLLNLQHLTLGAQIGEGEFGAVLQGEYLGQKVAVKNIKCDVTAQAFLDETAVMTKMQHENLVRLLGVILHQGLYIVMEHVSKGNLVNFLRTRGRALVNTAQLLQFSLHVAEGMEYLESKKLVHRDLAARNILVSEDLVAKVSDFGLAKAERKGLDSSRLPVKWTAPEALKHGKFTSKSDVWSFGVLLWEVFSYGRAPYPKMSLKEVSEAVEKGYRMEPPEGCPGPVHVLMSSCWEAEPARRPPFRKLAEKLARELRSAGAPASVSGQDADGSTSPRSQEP

`O=c1[nH]c(CC2CCCCC2)cc(O)c1-c1ccccc1` gave an MIC99 of 0.31 µM (≈ 0.0878 µg/mL) (Mycobacterium tuberculosis; H37Rv).
`CCc1nc(N)nc(N)c1C#C[C@@H](C)c1cc(OC)cc(-c2ccc(C(=O)O)cc2)c1` gave an MIC of 1 µg/mL (Mycobacterium tuberculosis; PAS-resistant thyX -16 C>T).
Under “log2 fold change”, `CCN1CCN(Cc2ccc(NC(=O)c3ccc(C)c(/C=C/c4cnc5[nH]ccc5c4OC)c3)cc2C(F)(F)F)CC1` is recorded as -0.102 (EKC/KEOPS complex subunit TP53RK (TP53RK, Homo sapiens, UniProt Q96S44); inhibitor, cell-based kinome screen; 5 µM; relative to: vehicle).
`CCc1nc(N)nc(N)c1C#CCc1cc(OC)cc(-c2ccc(C(=O)O)cc2)c1` has an MIC of 0.125 µg/mL (Mycobacterium tuberculosis; broth microdilution; Erdman ATCC 35801).
Under “reduction in viable count”, `Cc1ccc(-c2nsc(=O)o2)s1` is recorded as 2 log CFU (Mycobacterium tuberculosis; Erdman; 50 µM, 4 days, pH 7.4, nitric oxide non-replicating state, added: DETA-NO).
With `CC#C/C(=N\OC[C@H]1COCCN1)c1ccc2ncnc(Nc3ccc(OCc4cccc(F)c4)c(Cl)c3)c2c1` the inhibition was -12.2% (Megakaryocyte-associated tyrosine-protein kinase (MATK, Homo sapiens, UniProt P42679); kinase activity; 10 µM).
The MIC90 of `COCCOc1ccc2nc3ccc(=O)c(Br)c-3oc2c1` is reported as 20 µM (≈ 7 µg/mL) (Mycobacterium tuberculosis; mc2 6206 clofazimine-resistant fbiC mutant; 7 days).
The IC90 of `COc1c(C)c(-c2ccc(Cc3ccccc3)cc2)nc2ccccc12` is reported as 6.53 ± 1.11 µM (Mycobacterium tuberculosis; growth, MABA; H37Rv; aerobic).
`O=c1oc(-c2ccco2)ns1` — result for “reduction in viable count”: 2 log CFU (Mycobacterium tuberculosis; Erdman; 50 µM, 4 days, pH 7.4, nitric oxide non-replicating state, added: DETA-NO).
With `CS(=O)(=O)NC(=O)NCc1cn(-c2ccc(Cl)cc2)nc1-c1ccncc1` the MIC was 2 µM (Mycobacterium tuberculosis; EthA C253R mutant).
The MIC90 of `Cn1cc([N+](=O)[O-])nc1COc1ccc2nc3ccc(=O)cc-3oc2c1` is reported as over 256 µM (Mycobacterium tuberculosis; mc2 6206 bedaquiline-resistant MmpL5 regulator mutant; 7 days).
`FC(F)(F)Oc1ccc(Oc2ccc(CNCCNC3C4CC5CC(C4)CC3C5)cc2)cc1` (centres unmarked) has an MIC of 9.2 µg/mL (Mycobacterium tuberculosis; growth; H37Rv mutant MmpL3 F644L).
The MIC90 of `COc1ccc2nc3ccc(=O)cc-3oc2c1` is reported as 60 µM (≈ 13.6 µg/mL) (Mycobacterium tuberculosis; mc2 6206 clofazimine-resistant fbiC mutant; 7 days).
`CC[C@@H](CO)NCCN[C@@H](CC)CO` gave a CFU reduction of 2 log CFU (Mycobacterium tuberculosis; Erdman pFCA-luxAB, BALB/c mice, acute infection; 100 mg/kg once daily).
With `O=c1ccc2nc3ccc(OCC4(CO)COC4)cc3oc-2c1` the MIC90 was over 256 µM (Mycobacterium tuberculosis; mc2 6206 PA-824-resistant ddn mutant; 7 days).
The MIC of `CS(=O)(=O)NC(=O)NCc1cc(-c2ccc(Br)cc2)oc1-c1ccncc1` is reported as 0.24 µM (Mycobacterium tuberculosis; MmpL3 G253E mutant).
For `CCOc1ccc2nc3ccc(=O)cc-3oc2c1`, the MIC90 was 29 µM (≈ 7 µg/mL) (Mycobacterium tuberculosis; mc2 6206 PA-824-resistant ddn mutant; 7 days).
With `CC1(C)CCC(Cc2cc(O)c(-c3ccccc3)c(=O)[nH]2)CC1` the MIC50 was over 5 µM (Mycobacterium tuberculosis; inhA D148E resistant mutant).
With `O=c1ccc2nc3ccc(O)cc3oc-2c1` the MIC90 was 235 µM (≈ 50.1 µg/mL) (Mycobacterium tuberculosis; mc2 6206 bedaquiline-resistant MmpL5 regulator mutant; 7 days).
`CS(=O)(=O)NC(=O)CCc1cn(-c2ccc(Br)cc2)nc1-c1ccc(Cl)cc1` gave an MIC of 4 µM (Mycobacterium tuberculosis; OD600; QcrB A317T mutant).
